Results gathered from unrelated publications.
Numbered parts are unrelated; each lists some results of a single study.
UniProt P42336, sequence (whole entry, unmodified, looked up): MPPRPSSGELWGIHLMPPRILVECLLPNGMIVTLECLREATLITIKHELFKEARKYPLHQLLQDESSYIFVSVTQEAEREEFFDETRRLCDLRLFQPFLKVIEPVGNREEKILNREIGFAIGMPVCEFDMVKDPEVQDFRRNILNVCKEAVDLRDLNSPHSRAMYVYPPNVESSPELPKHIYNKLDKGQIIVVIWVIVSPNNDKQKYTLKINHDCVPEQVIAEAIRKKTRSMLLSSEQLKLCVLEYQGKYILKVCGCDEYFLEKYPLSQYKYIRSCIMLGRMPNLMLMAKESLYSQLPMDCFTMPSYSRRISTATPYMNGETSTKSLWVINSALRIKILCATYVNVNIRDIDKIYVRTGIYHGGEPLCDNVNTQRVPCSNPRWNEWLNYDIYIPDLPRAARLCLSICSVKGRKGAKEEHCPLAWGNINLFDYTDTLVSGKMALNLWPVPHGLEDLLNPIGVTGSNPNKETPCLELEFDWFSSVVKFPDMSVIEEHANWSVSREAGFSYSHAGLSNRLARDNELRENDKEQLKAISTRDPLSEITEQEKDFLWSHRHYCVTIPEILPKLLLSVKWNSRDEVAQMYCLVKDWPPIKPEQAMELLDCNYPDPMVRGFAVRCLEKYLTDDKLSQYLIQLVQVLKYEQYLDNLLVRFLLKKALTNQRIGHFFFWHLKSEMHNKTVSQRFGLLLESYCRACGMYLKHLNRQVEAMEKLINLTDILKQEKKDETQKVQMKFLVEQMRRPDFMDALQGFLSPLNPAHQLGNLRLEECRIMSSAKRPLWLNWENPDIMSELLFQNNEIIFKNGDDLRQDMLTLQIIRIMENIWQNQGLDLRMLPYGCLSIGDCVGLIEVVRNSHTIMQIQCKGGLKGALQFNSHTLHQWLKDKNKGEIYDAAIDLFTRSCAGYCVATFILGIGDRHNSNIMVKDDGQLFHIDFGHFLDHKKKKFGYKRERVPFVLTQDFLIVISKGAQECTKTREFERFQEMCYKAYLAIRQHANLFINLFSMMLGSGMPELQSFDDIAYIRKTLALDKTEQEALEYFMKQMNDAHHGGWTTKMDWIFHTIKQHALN
UniProt O96017, sequence (whole entry, looked up): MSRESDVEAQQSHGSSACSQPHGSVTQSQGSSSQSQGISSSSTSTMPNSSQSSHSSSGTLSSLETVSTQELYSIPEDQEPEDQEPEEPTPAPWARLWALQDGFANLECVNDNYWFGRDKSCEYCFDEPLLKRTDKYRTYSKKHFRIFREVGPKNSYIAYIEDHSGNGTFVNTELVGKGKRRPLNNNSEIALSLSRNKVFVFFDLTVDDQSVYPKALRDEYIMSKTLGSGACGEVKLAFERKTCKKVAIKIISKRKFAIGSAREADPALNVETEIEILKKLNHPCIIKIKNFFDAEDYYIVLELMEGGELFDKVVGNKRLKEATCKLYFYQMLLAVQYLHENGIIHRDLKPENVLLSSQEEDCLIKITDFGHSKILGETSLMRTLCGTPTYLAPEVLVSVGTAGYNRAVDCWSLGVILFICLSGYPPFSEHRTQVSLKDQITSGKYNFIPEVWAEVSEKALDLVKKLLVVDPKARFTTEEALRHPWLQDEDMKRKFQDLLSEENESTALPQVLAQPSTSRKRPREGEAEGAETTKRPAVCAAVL
UniProt P36897, sequence (whole entry, looked up): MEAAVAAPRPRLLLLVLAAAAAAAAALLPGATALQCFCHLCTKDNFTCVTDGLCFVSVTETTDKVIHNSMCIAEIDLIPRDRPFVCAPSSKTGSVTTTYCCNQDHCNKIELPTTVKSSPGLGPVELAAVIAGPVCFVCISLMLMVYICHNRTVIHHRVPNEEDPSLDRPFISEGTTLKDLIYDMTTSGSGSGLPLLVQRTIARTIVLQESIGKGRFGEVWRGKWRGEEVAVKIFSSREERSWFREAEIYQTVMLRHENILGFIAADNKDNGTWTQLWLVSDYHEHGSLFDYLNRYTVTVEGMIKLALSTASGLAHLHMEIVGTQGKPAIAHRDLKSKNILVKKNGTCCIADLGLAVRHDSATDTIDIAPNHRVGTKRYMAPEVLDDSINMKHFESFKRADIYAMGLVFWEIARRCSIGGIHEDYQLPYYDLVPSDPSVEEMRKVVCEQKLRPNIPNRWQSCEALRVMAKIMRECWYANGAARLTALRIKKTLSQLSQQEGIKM
UniProt P11802, sequence (whole entry, looked up): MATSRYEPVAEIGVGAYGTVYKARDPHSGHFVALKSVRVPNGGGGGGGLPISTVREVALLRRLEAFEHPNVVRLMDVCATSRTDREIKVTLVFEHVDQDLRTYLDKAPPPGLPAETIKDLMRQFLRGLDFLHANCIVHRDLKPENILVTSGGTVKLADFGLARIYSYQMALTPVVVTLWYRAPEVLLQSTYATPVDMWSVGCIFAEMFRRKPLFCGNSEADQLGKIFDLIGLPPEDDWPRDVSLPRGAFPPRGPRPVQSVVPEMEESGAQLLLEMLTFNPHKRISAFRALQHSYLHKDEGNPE
UniProt P37173, sequence (whole entry, looked up): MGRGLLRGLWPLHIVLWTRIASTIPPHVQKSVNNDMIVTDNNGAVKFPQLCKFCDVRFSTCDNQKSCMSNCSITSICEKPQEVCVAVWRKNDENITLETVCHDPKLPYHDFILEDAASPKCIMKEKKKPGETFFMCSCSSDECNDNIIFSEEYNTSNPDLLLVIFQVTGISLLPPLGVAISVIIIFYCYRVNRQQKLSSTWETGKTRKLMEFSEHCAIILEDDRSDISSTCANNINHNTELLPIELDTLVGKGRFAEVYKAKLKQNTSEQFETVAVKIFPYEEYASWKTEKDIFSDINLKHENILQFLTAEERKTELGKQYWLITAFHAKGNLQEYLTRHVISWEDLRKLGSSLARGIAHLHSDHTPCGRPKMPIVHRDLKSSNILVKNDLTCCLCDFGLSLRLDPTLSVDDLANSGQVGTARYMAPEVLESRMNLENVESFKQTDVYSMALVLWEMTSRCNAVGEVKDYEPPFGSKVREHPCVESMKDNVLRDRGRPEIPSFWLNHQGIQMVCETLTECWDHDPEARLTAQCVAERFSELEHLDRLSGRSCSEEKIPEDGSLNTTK
UniProt Q00535, sequence (whole entry, looked up): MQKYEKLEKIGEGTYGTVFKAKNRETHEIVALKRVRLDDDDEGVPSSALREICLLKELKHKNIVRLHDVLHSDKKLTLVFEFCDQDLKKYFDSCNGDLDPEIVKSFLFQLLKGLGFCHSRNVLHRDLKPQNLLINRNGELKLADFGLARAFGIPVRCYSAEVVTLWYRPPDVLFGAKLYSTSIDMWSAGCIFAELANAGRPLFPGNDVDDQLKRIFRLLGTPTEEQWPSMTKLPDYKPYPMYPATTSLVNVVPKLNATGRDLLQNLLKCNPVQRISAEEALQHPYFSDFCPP

Study 1
Target: Eukaryotic initiation factor 4A-I (EIF4A1, Homo sapiens, UniProt P60842, residues 1-406, full length assumed)
UniProt P60842, sequence (whole entry, looked up): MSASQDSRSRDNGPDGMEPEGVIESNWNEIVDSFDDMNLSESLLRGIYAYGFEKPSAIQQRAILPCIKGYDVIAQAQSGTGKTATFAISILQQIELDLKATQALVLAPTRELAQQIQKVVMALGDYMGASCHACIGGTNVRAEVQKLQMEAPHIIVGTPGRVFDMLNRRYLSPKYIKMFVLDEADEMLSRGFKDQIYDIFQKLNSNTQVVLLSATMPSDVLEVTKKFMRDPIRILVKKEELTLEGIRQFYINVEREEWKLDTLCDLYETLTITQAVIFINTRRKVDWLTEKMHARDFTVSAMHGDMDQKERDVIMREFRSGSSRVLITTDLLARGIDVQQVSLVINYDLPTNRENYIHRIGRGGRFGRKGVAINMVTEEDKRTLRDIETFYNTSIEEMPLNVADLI
Method: RNA Bind-n-Seq
Molecule type: RNA
Medium: in vitro
Concentration: 90 pmol
Setting: 4-mer, random 30-nt RNA, single round
Added: 3 µM DMDA-PatA, 2 mM ADP, 2 mM phosphate
Reference: input library
Reading: higher = stronger binding
Oligonucleotide	4-mer enrichment [fold]
GUCU	0.685
GCUA	0.62
GUAU	1.12
AACC	0.637
CAUC	0.635
AGGC	1.07
UGUA	1.12
AACG	0.731

Study 2
Structure (SMILES): O=Nc1c(-c2c(O)[nH]c3ccccc23)[nH]c2ccccc12
Observed: enzyme activity
Action: inhibitor
Concentration: 0.5 µM
Reference: control
target	remaining activity [%]
CAMK2D (Homo sapiens, UniProt Q13557)	60.4
CAMKK2 (Homo sapiens, UniProt Q96RR4)	66.8
Cyclin-dependent kinase 4, with cyclin D1 (CDK4, Homo sapiens, UniProt P11802)	70.9
Tyrosine-protein kinase Lyn, isoform B (LYN, Homo sapiens, UniProt P07948)	79.6
DAPK1 (Homo sapiens, UniProt P53355)	83.2
cGMP-dependent protein kinase 1, isoform beta (PRKG1, Homo sapiens, UniProt Q13976)	90.1
STK39 (Homo sapiens, UniProt Q9UEW8)	90.4
Protein kinase C beta type, isoform beta-I (PRKCB, Homo sapiens, UniProt P05771)	94.7
STK10 (Homo sapiens, UniProt O94804)	74
IKBKE (Homo sapiens, UniProt Q14164)	75.1
PRKACA (Homo sapiens, UniProt P17612)	107
OXSR1 (Homo sapiens, UniProt O95747)	91.7
NEK2 (Homo sapiens, UniProt P51955)	109
Cyclin-dependent kinase 5, with p25 (CDK5, Homo sapiens, UniProt Q00535)	28.7
MAPK9 (Homo sapiens, UniProt P45984)	65.6
TGFBR1 (Homo sapiens, UniProt P36897)	98.9
GRK3 (Homo sapiens, UniProt P35626)	108
IKBKB (Homo sapiens, UniProt O14920)	96.1
DAPK2 (Homo sapiens, UniProt Q9UIK4)	110
TGFBR2 (Homo sapiens, UniProt P37173)	113
CHEK2 (Homo sapiens, UniProt O96017)	32.3

Study 3
Target: Histone acetyltransferase KAT6A, winged helix 1, GST fusion (KAT6A, Homo sapiens, UniProt Q92794, residues 1-85)
Method: protein binding microarray
Molecule type: double-stranded DNA, one strand shown
Medium: in vitro
Concentration: not given
Setting: 8-mer, flanks averaged, mean of 2 arrays, mostly near background
Reference: not given
Reading: higher = stronger binding
Residues (chain): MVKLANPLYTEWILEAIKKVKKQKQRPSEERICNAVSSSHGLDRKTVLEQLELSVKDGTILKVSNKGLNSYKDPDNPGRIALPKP
Oligonucleotide	E-score
ACGGAGGC	0.271
GAGCAGCC	-0.0831
TACTGTGA	-0.197
AGGGGGTA	-0.208
ACTCCTCG	-0.271
GGAGCCCA	-0.131
GCTTTCCC	0.0463
CGGAAACG	0.265

Study 4
Structure (SMILES): Cc1c(NC(=O)c2cc(C(N)=O)nc3cc(F)ccc23)c(C(F)(F)F)nn1Cc1ccc(C#N)cc1
Method: competition with immobilised ligand
Concentration: 1 µM
target	test	remaining binding [%]
TLK2 (Homo sapiens, UniProt Q86UE8)	cell-free assay	100
PIK3CA (Homo sapiens, UniProt P42336, I800L)	cell-free assay	78
PRKAA1 (Homo sapiens, UniProt Q13131)	cell-free assay	86
FGFR3 (Homo sapiens, UniProt P22607)	cell-free assay	99
ALK (Homo sapiens, UniProt Q9UM73, L1196M)	cell-free assay	83
MAPK8 (Homo sapiens, UniProt P45983)	cell-free assay	80
Mast/stem cell growth factor receptor Kit, autoinhibited (KIT, Homo sapiens, UniProt P10721)	cell-free assay	72
PIK3CA (Homo sapiens, UniProt P42336, M1043I)	cell-free assay	91
FLT3 (Homo sapiens, UniProt P36888, F691L/ITD)	cell-free assay	68
FRK (Homo sapiens, UniProt P42685)	cell-free assay	100
TGFBR1 (Homo sapiens, UniProt P36897)	cell-free assay	80
Tyrosine-protein kinase ABL1, non-phosphorylated (ABL1, Homo sapiens, UniProt P00519, F317I)	binding	96
LRRK2 (Homo sapiens, UniProt Q5S007)	cell-free assay	83
CSNK1G3 (Homo sapiens, UniProt Q9Y6M4)	cell-free assay	100
ACVRL1 (Homo sapiens, UniProt P37023)	binding	100
Tyrosine-protein kinase ABL1, phosphorylated (ABL1, Homo sapiens, UniProt P00519, H396P)	cell-free assay	81
NUAK1 (Homo sapiens, UniProt O60285)	cell-free assay	100
CHEK2 (Homo sapiens, UniProt O96017)	cell-free assay	73

Excerpt of the above (study 3):
Oligonucleotide	E-score
ACTCCTCG	-0.271
GAGCAGCC	-0.0831
TACTGTGA	-0.197
CGGAAACG	0.265
